Assay results from different studies.
Each numbered part is a random draw from the data of one study; scales do not carry over between parts. “And” joins repeats or separate records; there may be more than shown.
Chain of UniProt P07333 (whole entry, looked up): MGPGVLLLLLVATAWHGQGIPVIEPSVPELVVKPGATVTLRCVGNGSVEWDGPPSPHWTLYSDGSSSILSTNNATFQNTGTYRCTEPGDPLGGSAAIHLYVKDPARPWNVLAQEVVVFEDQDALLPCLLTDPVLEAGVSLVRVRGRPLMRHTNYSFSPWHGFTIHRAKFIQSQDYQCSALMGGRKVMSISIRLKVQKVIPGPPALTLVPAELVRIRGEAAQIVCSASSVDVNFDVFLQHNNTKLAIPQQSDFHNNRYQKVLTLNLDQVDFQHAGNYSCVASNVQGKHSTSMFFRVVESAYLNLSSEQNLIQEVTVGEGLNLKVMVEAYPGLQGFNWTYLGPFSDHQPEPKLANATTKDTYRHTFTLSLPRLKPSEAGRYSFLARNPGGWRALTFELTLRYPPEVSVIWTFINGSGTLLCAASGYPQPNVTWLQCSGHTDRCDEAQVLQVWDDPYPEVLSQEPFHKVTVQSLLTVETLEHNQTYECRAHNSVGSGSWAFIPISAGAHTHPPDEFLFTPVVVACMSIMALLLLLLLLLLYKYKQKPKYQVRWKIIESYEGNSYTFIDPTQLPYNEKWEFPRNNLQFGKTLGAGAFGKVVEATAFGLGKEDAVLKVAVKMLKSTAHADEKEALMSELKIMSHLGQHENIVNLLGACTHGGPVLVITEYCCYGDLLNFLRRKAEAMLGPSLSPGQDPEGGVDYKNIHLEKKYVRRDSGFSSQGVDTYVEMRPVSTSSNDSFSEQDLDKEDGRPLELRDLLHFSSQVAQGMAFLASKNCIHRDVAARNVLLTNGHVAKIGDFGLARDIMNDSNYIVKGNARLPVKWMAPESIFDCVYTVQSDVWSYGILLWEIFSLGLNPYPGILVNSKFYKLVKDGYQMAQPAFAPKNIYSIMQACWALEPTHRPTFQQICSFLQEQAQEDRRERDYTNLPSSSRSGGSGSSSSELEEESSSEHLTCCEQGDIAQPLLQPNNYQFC
Chain of UniProt O95835 (whole entry, looked up): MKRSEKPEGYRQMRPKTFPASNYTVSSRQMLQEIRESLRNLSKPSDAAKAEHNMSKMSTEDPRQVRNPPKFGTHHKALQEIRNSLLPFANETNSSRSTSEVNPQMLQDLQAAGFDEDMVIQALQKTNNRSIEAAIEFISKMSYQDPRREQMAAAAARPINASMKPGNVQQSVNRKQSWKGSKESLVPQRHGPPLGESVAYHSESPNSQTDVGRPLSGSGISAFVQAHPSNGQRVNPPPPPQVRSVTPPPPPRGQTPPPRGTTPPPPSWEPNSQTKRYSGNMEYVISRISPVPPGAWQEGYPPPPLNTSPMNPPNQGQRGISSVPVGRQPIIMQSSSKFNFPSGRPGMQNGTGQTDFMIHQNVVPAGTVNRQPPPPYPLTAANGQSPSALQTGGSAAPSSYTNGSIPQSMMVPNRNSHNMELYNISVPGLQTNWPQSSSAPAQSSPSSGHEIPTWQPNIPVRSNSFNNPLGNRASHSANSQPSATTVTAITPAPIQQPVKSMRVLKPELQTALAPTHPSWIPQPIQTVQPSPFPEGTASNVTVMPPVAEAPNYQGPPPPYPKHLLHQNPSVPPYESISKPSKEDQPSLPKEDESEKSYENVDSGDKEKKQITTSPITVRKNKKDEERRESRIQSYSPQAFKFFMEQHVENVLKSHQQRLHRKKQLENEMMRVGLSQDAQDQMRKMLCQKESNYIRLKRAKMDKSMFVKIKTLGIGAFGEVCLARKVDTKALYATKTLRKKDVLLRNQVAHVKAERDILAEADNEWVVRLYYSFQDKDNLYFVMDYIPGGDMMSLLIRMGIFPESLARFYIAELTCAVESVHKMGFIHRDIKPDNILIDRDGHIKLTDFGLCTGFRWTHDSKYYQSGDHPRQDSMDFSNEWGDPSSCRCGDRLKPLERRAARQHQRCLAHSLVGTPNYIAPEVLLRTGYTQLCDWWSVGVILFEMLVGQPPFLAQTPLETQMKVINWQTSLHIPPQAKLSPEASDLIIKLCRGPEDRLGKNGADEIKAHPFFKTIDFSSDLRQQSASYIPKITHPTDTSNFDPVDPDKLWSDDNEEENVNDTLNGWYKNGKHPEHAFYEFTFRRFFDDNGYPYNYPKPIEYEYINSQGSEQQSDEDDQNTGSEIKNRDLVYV
Chain of UniProt Q96Q40 (whole entry, looked up): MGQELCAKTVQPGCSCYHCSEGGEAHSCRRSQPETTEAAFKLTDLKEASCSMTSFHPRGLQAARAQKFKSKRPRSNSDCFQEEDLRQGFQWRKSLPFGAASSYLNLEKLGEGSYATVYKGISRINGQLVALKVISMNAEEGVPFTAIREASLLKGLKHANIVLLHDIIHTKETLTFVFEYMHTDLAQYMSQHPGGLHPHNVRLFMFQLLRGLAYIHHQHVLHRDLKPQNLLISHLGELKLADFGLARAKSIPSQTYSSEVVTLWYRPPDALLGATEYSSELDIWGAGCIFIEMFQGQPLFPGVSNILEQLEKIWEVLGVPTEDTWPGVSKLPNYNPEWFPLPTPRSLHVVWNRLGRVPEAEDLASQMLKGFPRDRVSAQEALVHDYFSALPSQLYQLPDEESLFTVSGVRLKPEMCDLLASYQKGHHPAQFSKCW
Chain of UniProt P54753 (whole entry, looked up): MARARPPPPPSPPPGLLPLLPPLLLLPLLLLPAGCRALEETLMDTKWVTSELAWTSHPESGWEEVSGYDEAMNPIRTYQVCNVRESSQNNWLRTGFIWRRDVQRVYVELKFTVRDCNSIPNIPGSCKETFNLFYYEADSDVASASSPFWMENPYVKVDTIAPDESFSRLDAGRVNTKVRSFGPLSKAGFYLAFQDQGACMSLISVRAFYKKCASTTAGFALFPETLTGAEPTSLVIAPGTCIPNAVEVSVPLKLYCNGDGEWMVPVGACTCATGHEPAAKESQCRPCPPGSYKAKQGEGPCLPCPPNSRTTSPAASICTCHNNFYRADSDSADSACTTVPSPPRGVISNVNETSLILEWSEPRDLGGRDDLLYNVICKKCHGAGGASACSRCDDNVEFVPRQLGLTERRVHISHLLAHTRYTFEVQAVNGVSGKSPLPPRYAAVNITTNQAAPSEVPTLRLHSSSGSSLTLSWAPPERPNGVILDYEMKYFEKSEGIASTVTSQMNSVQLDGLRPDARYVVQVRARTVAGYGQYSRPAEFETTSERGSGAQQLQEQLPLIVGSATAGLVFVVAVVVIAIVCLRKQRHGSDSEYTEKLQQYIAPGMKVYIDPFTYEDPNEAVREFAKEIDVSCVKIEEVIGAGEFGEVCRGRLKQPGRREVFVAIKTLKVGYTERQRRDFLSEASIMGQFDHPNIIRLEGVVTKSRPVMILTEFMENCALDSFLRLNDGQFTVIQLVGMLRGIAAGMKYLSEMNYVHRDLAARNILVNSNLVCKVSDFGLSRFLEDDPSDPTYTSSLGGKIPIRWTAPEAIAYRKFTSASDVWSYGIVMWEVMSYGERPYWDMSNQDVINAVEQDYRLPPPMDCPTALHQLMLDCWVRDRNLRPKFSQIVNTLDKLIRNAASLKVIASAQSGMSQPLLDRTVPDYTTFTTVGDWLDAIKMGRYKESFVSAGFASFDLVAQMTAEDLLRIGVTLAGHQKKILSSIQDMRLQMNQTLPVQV
Chain of UniProt Q00535 (whole entry, looked up): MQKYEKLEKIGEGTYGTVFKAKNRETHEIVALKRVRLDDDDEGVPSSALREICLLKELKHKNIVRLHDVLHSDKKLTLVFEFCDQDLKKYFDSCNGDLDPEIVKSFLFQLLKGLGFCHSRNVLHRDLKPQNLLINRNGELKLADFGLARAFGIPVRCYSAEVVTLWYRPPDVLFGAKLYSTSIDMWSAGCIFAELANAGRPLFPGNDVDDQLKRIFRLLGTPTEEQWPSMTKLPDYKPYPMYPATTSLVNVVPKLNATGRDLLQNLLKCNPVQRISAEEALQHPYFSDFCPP
Chain of UniProt Q9Y616 (whole entry, looked up): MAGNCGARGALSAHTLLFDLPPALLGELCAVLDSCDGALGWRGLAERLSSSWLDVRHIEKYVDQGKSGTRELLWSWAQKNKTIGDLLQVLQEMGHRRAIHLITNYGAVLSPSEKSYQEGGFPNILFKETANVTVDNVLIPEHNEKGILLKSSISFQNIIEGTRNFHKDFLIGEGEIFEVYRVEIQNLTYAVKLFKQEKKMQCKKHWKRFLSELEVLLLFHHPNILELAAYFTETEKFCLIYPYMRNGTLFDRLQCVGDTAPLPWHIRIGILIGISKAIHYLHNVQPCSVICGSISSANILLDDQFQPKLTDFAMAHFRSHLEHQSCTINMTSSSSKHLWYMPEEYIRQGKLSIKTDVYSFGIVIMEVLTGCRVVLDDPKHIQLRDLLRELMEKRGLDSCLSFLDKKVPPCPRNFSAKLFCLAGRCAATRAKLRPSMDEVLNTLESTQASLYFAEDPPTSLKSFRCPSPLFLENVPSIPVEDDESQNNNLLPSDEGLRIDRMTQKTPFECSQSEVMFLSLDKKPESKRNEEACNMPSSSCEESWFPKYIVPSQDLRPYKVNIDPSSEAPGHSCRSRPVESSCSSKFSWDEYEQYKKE
Chain of UniProt Q99759 (whole entry, looked up): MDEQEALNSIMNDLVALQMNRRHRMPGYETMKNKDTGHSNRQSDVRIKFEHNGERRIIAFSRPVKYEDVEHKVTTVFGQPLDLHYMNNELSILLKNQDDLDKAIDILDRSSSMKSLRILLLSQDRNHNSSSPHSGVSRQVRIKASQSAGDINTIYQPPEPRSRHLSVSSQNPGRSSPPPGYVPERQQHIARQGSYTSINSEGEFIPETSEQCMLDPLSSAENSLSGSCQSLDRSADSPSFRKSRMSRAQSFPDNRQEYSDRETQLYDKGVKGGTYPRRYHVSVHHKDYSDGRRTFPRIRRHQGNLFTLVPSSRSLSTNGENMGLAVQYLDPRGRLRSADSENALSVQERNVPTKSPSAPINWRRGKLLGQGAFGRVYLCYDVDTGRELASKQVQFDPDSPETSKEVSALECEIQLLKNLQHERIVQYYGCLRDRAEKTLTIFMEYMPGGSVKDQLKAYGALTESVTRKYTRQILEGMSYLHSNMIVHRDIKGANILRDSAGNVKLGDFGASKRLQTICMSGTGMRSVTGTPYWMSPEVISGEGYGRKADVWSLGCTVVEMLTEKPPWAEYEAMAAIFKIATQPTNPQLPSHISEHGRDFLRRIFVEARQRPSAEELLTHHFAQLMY

Series 1
Target: His6 tag
Technique: AlphaScreen counter screen
Concentration: concentration not given
Structure (SMILES) | inhibition [%]
Cc1ccc(C(=O)O)cc1-c1ccc(C=C2NC(=O)N(c3ccccc3)C2=O)o1 | -0.15
COc1ccc(CNC(=O)Nc2ncc([N+](=O)[O-])s2)cc1 | 5.35
N#CC(=Cc1ccccn1)c1nc2ccccc2s1 | -5.1
O=C(CSc1ccc2nnc(-c3ccc(Cl)cc3)n2n1)Nc1cccc(F)c1 | -2.65
COc1ccc(Cl)cc1NC(=O)Nc1cc(C)nc2ccccc12 | 53.5
NC1=N/C(=C2/CCNC(=O)c3[nH]c(Br)cc32)C(=O)N1 | 4.9
O=C(NCc1ccc(NC(=O)C2CC2)cc1)c1n[nH]c2ccccc12 | 3.4

Series 2
Cell line: HaCaT
Concentration: 100 µM
Time: 36 h
SMILES | viability [%]
CC(=O)O[C@H]1C[C@@H]2CC[C@@H]3[C@H](CC[C@@]4(C)[C@H]3C[C@H]([N+]3(C)CCCCC3)[C@@H]4OC(C)=O)[C@@]2(C)C[C@@H]1N1CCCCC1 | 90.4
CC(=O)OCC(COC(C)=O)OC(C)=O | 85.3
CC(=O)Oc1c(C)c(C)c2c(c1C)CCC(C)(CCC[C@H](C)CCC[C@H](C)CCCC(C)C)O2 (stereo partly drawn) | 91.8
COc1c(N2C[C@@H]3CCCN[C@@H]3C2)c(F)cc2c(=O)c(C(=O)O)cn(C3CC3)c12 | 90.3
O=C(/C=C/C=C/c1ccc2c(c1)OCO2)N1CCCCC1 | 50.6
CN(C)c1nc(N(C)C)nc(N(C)C)n1 | 81.5
NC[C@H]1O[C@H](O[C@H]2[C@H](O[C@@H]3O[C@H](CO)[C@@H](O)[C@H]3O)[C@@H](O)[C@H](N)C[C@@H]2N)[C@H](N)[C@@H](O)[C@@H]1O | 96.6

Series 3
Cell line: mouse MPNST tumor cells
Technique: high-content nuclear imaging
Refers to: cell number
Concentration: 10 µM
Time: 12 h
Setting: mean of 2 replicates
Relative to: plate mean
Reading: higher = more cells
SMILES | nuclei count
C[C@@H]1C[C@H]2[C@@H]3C[C@H](F)C4=CC(=O)C=C[C@]4(C)[C@@]3(F)[C@@H](O)C[C@]2(C)[C@@]1(O)C(=O)COC(=O)C(C)(C)C | 3.58 z-score
Cc1cc(N2C[C@@H](C)N[C@@H](C)C2)ncc1-c1ccc(-c2nc3c(ccn3C)c(=O)[nH]2)cc1 | -4.96 z-score
CC#CCOc1ccc(S(=O)(=O)N2CCSC(C)(C)[C@@H]2C(=O)NO)cc1 | 2.95 z-score
CC1(C)S[C@@H]2[C@H](NC(=O)[C@H](N)c3ccccc3)C(=O)N2[C@H]1C(=O)O | 4.26 z-score
O=C(O)C1CCCN(CCC=C(c2ccccc2)c2ccccc2)C1 (stereo not drawn) | 0.195 z-score
CCCCC(=O)N(Cc1ccc(-c2ccccc2-c2nnn[nH]2)cc1)[C@H](C(=O)O)C(C)C | 0.784 z-score and 1.39 z-score

Series 4
Structure (SMILES): O=C(NCc1ncc(C(F)(F)F)cc1Cl)c1ccc2c(c1)C1(CCS(=O)(=O)CC1)[C@@H](C1CC1)N2S(=O)(=O)c1ccc(F)cc1
Read-out: cell-free assay
Technique: competition with immobilised ligand
Concentration: 1 µM
target | remaining binding
IRAK3 (Homo sapiens, UniProt Q9Y616) | 100%
MAP3K3 (Homo sapiens, UniProt Q99759) | 60%
MAK (Homo sapiens, UniProt P20794) | 89%
EPHB3 (Homo sapiens, UniProt P54753) | 100%
MAPK12 (Homo sapiens, UniProt P53778) | 94%
RIPK4 (Homo sapiens, UniProt P57078) | 72%
CSF1R (Homo sapiens, UniProt P07333) | 87%
CDK15 (Homo sapiens, UniProt Q96Q40) | 69%
PIP5K1A (Homo sapiens, UniProt Q99755) | 100%
LATS1 (Homo sapiens, UniProt O95835) | 97%
Macrophage colony-stimulating factor 1 receptor, autoinhibited (CSF1R, Homo sapiens, UniProt P07333) | 74%
CDK5 (Homo sapiens, UniProt Q00535) | 89%
ROCK1 (Homo sapiens, UniProt Q13464) | 82%

For quick reference, copied from above (series 4):
target | remaining binding
CDK15 (Homo sapiens, UniProt Q96Q40) | 69%
PIP5K1A (Homo sapiens, UniProt Q99755) | 100%
LATS1 (Homo sapiens, UniProt O95835) | 97%
